Measured values gathered from unrelated publications.
Compare with care: the assays were run in different laboratories.

CCN(CC)CCNC(=O)c1c(C)[nH]c(/C=C2\C(=O)Nc3ccc(F)cc32)c1C  median trough plasma concentration (human, plasma; oral, 15 mg/m2, day 7): 27.8 ng/mL
O=C(O)c1cccc(O)c1  median concentration (human, fasted baseline, cerebrospinal fluid): 304 nM
C=CC(=O)Nc1cc(Nc2nccc(-c3cn(C)c4ccccc34)n2)c(OC)cc1N(C)CCN(C)C  median trough concentration (UHPLC-MS/MS; human, NSCLC patients, finger-prick dried blood spot; oral, 80 mg daily, steady state, at least 14 d treatment): 203 ng/mL
C[C@H](N)C(=O)N1C[C@H](CCCB(O)O)[C@](N)(C(=O)O)C1  median tmax (human patients, plasma; oral, 100 mg single dose, cycle 1 day 1): 4 h
O=S(=O)(O)Oc1cc([C@H]2Oc3cc(O)cc(O)c3C[C@H]2O)ccc1O  median concentration (human, fasted baseline, cerebrospinal fluid): 11.9 nM
C=C[C@@H]1C[C@]1(NC(=O)[C@@H]1C[C@@H]2CN1C(=O)[C@H](C(C)(C)C)NC(=O)O[C@@H]1C[C@H]1CCCCCc1nc3ccc(OC)cc3nc1O2)C(=O)NS(=O)(=O)C1CC1  median tmax (healthy adult humans, plasma; oral, 100 mg, fixed-dose combination with elbasvir 50 mg, fasted): 1.5 h
O=C(/C=C/c1ccc(O)c(O)c1)O[C@@H]1C[C@](O)(C(=O)O)C[C@@H](O)[C@H]1O  median concentration (human, fasted baseline, cerebrospinal fluid): 3.2 nM
Cn1c(-c2ccc(C(N)=O)cc2F)nnc1C(C)(C)Oc1c(F)cc(Cl)cc1F  median Cmax (young non-Japanese humans, plasma; oral, 0.7 mg, day 1, single dose): 0.0126 ng/mL
N#Cc1ccnc(N2C(=O)CC[C@H]2C(=O)N(c2cncc(F)c2)[C@H](C(=O)NC2CC(F)(F)C2)c2ccccc2Cl)c1  median Tmax (human patients; oral, 500 mg once daily, cycle 1 day 1, together with: consolidation chemotherapy): 3.93 h
Teicoplanin  median trough total concentration (HPLC-UV; human patients, serum; dose not given): 24.9 µg/mL
CO[C@H]1C[C@@H]2CC[C@@H](C)[C@@](O)(O2)C(=O)C(=O)N2CCCC[C@H]2C(=O)O[C@H]([C@H](C)C[C@@H]2CC[C@@H](OC(=O)C(C)(CO)CO)[C@H](OC)C2)CC(=O)[C@H](C)/C=C(\C)[C@@H](O)[C@@H](OC)C(=O)[C@H](C)C[C@H](C)/C=C/C=C/C=C/1C  median Cmax (human, whole blood; intravenous, 35 mg/m2, cycle 1, together with: valproic acid): 790 ng/mL
Cn1cnc2c1c(=O)[nH]c(=O)n2C  median concentration (human, fasted baseline, cerebrospinal fluid): 333 nM
CC[C@@H]1C(=O)N(C)c2cnc(Nc3ccc(C(=O)N[C@H]4CC[C@H](N5CCN(CC6CC6)CC5)CC4)cc3OC)nc2N1C(C)C  median Tmax (human, plasma; intravenous infusion, 150 mg over 2 h, first infusion): 1.03 h
O=c1ccc2ccc(O)c(O)c2o1  median concentration (human, fasted baseline, cerebrospinal fluid): 19.6 nM
CC(C)(O)CNc1nc(Nc2ccnc(C(F)(F)F)c2)nc(-c2cccc(C(F)(F)F)n2)n1  median Tmax (human patients; oral, single and multiple doses, together with: induction and consolidation chemotherapy): ~4 h

For quick reference, copied from above:
C=CC(=O)Nc1cc(Nc2nccc(-c3cn(C)c4ccccc34)n2)c(OC)cc1N(C)CCN(C)C  median trough concentration (UHPLC-MS/MS; human, NSCLC patients, finger-prick dried blood spot; oral, 80 mg daily, steady state, at least 14 d treatment): 203 ng/mL
C[C@H](N)C(=O)N1C[C@H](CCCB(O)O)[C@](N)(C(=O)O)C1  median tmax (human patients, plasma; oral, 100 mg single dose, cycle 1 day 1): 4 h
